Published values pooled from the literature.
Every numbered part comes from another study and shows a few of its results, in no order. Positions count from the first letter of the parent shown.

Block 1
Target: ABI1, truncated, D143A, DHFR fusion (Arabidopsis thaliana)
Technique: DHFR PCA, deep sequencing
Sample: yeast
Setting: methotrexate growth selection, single substitutions
With: (+)-ABA 0 µM
Relative to: wild-type fitted maximum
Reading: higher = stronger binding
Quantity: relative binding score
Starting sequence: PYL1, truncated, DHFR fusion (Arabidopsis thaliana); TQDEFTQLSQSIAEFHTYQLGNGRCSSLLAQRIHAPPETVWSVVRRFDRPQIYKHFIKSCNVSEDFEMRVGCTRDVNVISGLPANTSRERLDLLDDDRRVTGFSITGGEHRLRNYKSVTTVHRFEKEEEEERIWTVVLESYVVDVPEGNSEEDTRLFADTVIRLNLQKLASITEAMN; partner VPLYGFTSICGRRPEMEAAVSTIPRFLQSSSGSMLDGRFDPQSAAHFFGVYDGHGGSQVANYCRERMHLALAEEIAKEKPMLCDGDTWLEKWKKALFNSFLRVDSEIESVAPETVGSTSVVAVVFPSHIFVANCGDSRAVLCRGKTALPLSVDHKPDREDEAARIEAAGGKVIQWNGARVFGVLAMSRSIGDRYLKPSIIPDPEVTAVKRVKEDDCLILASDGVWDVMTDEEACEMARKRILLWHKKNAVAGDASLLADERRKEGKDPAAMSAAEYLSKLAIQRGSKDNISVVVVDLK
Variant = V40G; value = 1.5%
Variant = E131K; value = 56.2%
Variant = Q2T; value = 21.3%
Variant = S117Y; value = -1.31%
Variant = G81C; value = 22.1%
Variant = I162L; value = 4.86%
Variant = G71P; value = 1.28%
Variant = H16R; value = -0.22%
Variant = S63Y; value = 1.16%
Variant = E125N; value = 19.4%
Variant = G81L; value = 6.16%
Variant = E4S; value = 6.37%
Variant = R98C; value = -1.57%
Variant = I79K; value = 5.33%

Block 2
Target: Protein C-ets-1 (ETS1, Homo sapiens, UniProt P14921, residues 1-441, K379A, full length assumed)
Technique: protein-binding microarray
Form: double-stranded DNA, one strand shown
Sample: in vitro
Concentration: not given
Setting: k-mer, scored over probes, only values ≥0.25
Reading: higher = stronger binding
Quantity: E-score
Target sequence (chain): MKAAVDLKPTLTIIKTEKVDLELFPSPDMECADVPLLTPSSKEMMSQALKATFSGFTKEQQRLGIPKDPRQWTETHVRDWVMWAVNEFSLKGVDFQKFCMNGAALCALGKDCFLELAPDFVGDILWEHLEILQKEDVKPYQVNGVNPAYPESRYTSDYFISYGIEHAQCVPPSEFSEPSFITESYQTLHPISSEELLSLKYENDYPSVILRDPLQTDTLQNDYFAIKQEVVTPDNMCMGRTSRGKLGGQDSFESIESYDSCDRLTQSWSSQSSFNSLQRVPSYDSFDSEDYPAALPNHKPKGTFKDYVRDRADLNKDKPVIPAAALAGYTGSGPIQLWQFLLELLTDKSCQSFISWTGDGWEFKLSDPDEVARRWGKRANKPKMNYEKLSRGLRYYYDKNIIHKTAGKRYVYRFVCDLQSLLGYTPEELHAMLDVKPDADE
Strand = TCCGGCGA; value = 0.292
Strand = AATTACGT; value = 0.258
Strand = CGGTATAA; value = 0.341
Strand = ACTTCCTG; value = 0.326
Strand = ATGTATTG; value = 0.266
Strand = CCCGGGAC; value = 0.343
Strand = CCGCCCGG; value = 0.383
Strand = AAACGACG; value = 0.303
Strand = CAACGTCG; value = 0.291
Strand = CCGGAACC; value = 0.351
Strand = ACCGGTGA; value = 0.38
Strand = AACACCGG; value = 0.37
Strand = AAGTATGT; value = 0.288
Strand = CGGTTATA; value = 0.267
Strand = GACGGTAA; value = 0.275
Strand = GCGTTGTA; value = 0.29

Block 3
Target: Ras GTPase-activating protein-binding protein 1, full length (G3BP1, Homo sapiens, UniProt Q13283)
Sequence of UniProt Q13283 (whole entry, looked up): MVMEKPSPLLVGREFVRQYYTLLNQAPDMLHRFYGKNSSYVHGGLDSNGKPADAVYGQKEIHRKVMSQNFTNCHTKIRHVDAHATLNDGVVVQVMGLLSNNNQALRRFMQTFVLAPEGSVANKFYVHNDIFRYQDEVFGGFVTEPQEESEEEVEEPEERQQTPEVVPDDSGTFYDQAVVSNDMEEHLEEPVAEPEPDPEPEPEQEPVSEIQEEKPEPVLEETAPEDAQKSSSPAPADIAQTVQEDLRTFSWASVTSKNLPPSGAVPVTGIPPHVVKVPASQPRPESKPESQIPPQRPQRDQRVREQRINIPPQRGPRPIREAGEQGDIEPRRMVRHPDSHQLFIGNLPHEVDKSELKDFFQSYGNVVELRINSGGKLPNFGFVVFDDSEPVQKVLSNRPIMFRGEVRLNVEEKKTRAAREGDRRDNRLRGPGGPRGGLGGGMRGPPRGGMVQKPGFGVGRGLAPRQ
Technique: RNA Bind-n-Seq
Form: RNA
Sample: in vitro
Concentration: 200 nM
Setting: whole 134-nt RNA, ends assumed
With: 150 mM KCl
Relative to: input library
Reading: higher = stronger binding
Quantity: log2 enrichment
All sequences stand within: GGGAGUUCUACAGUCCGACGAUC … UGGAAUUCUCGGGUGUCAAGG
Strand = AAGUCCUGUGCUACACAUCGUAUGUACCGAAUCGGUUUUUGGUUUUUGGGUUUUUGGAAAGUAUUAUGUUACGCCGUUCGGAUCUGCACU; value = -1.35
Strand = AGUCCUGUGCUACACAUCGUAUGUACCGAAUCGGGUUUUUGGGAGGGAAAAAAAGGGAAAGUAUUAUGUUACGCCGUUCGGAUCUGCACU; value = -0.308
Strand = UCCUGUGCUACACAUCGUAUGUACCGAAUCGGGGUUUUUGGGUUUUUGGGUUUUUGGGGAAAGUAUUAUGUUACGCCGUUCGGAUCUGCA; value = 0.114
Strand = GUCCUGUGCUACACAUCGUAUGUACCGAAUCGGGUUUGGGUUUUUUUGGGUUUUUGGGAAAGUAUUAUGUUACGCCGUUCGGAUCUGCAC; value = -0.116
Strand = UGCACACCGCCUUGCACAUAGCAGAGGCUCCGGGCUCACUCCUUCCUGGUGGGAAAGGAAGAUGCCUGUCCUCUCCGUGGAAGACCCUGG; value = -1.45
Strand = AGUCCUGUGCUACACAUCGUAUGUACCGAAUCAAAUUUUUAAACCCCCAAAUUUAAAAAAGUAUUAUGUUACGCCGUUCGGAUCUGCACU; value = -0.502
Strand = ACUGAGGUACUGCCCUCCCCUGCCCCCUACCCUCUCCCUUGUCCCUCUACCCCGUUCCUCCCCUUCCCUCCAUUCCCUUUCCCCAACCUG; value = 1.18
Strand = UCCUGUGCUACACAUCGUAUGUACCGAAUCGGGCCCCCCGGCCCCCCGGGCCCCCCGGGGAAAGUAUUAUGUUACGCCGUUCGGAUCUGC; value = -0.031
Strand = UGCCUUGCAGAUACGUGGCUUUCCUGAAGCUGUUCCUGGAGACGGCGGAGAAGCACUUCAUGGUGGGCCACCGUGUCCACUACUAUGUCU; value = -1.41
Strand = CCUGUGCUACACAUCGUAUGUACCGAAUCGGGCCCCCCGGCCCCCCGGGGCCCCCCGGGGAAAGUAUUAUGUUACGCCGUUCGGAUCUGC; value = -0.411
Strand = UGGGAGGUGGAUUUUGUUUAUUUUUUUAGCUCAUUUCCAGGGGUGGGAGUUUUUUUUUAAUAUGUGUCAUGAAUAAAGUUGUUUUUGAAA; value = 0.514

Block 4
Target: RNA binding protein fox-1 homolog 2, RRM domain, GST-SBP tag (RBFOX2, Homo sapiens, UniProt O43251-10, residues 100-194)
Technique: RNA Bind-n-Seq
Form: RNA
Sample: in vitro
Concentration: 365 nM
Setting: natural RNA segment, single round, ends assumed
Relative to: no-protein control
Reading: higher = stronger binding
Quantity: RBNS enrichment (R)
All sequences stand within: GGGAGUUCUACAGUCCGACGAUC … UGGAAUUCUCGGGUGCCAA
Residues (chain): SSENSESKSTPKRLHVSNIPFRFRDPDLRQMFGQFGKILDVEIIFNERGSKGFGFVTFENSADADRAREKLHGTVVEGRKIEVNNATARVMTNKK
Strand = GAACUAUUUUUGGAUAAAUUAUAUAUUUUCCUUCCUAGUAGAAGUGUUACUGCCUGUAACUAGCUCAAAAUACCAAUGCAGUUUCUGCAUUCUGGGUUUUGUUUUUCCUU; value = 0.315
Strand = AACGAGUACUGAGAGGAGAGAAUGUACGUUUGCUUUACCCACCGCCACCAAGAAAGCAGUCCGAUGAGAUUUUUUUUUGGAGGGGGGAGGGUCUACACAGCAAGAGAACA; value = 0.317
Strand = CUGAGUUUAAUUUAAUAUGUAAUACAUAUGGUAAUUGUAGGGUAAUACCCACAACAACUGUAGUUUCUUACUUGGCCAAGAGAAUGCUUAUUUAAGUGUUAGACUUCCAU; value = 0.22
Strand = CCUUCUGUUUGGAUUUUGCUCAACAUCUCCAGUUUCUCUGCUCUGAAAAAUGGGGAAAACUGCUAAACAUCCCAGAGAUUUGCAAUCUUCUAGCUCUCCAGGUGAGCAGA; value = 0.371
Strand = CCCACCUUUCUUGCACACUGUGAUUAUGUGCUAAGAAAAGGGUGGAGUUGGGAGGACAAUUUCACUUGAACAGGUUUCUGUUCUUCUGAGGUCAGGGUGGGGAGGAUGUC; value = 0.695
Strand = GACAUGCAGGCCACAGGGCUUCUAGGCAGGGAAAGGGCACACACCCUAGGUCAGCGUGCAGAGCAGUGAUGCUGGAGGACACACCAUGGGGUGAAGCCAUCCCAAGGCUG; value = 0.656
Strand = GGUGAGGGUGGCUUUCUUCCAGCCCCAAAUGAGACGAGUCUGUGUCAUCAUUGAAACUGCUUUUCGUAAUUGCGGGUAGGUUCCUGUAGGUGAGACAUAUUCUCCAUAAA; value = 0.323
Strand = GCUUCCUUCAUUUUACUUCCCCUUCUGUUUUUGAAAGGCAGUUUCGCCAAGCUUAAUGCAAGAAUAUCUGACUGUUUAGAAGAAAGAUAUUGCCACAAUCUCUGGAUGGU; value = 0.281

Block 5
Target: Histone acetyltransferase KAT6A, winged helix 1, GST fusion (KAT6A, Homo sapiens, UniProt Q92794, residues 1-85)
Technique: protein binding microarray
Form: double-stranded DNA, one strand shown
Sample: in vitro
Concentration: not given
Setting: 8-mer, flanks averaged, mean of 2 arrays, mostly near background
Relative to: not given
Reading: higher = stronger binding
Quantity: E-score
Construct (chain): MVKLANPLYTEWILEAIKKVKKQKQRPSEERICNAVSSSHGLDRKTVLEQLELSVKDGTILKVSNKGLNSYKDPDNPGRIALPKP
Strand = GTACTGAA; value = 0.104
Strand = CCTTCCCA; value = -0.225
Strand = AAGCCTTG; value = -0.0691
Strand = CACGTCCG; value = 0.111
Strand = ATGTCTAA; value = -0.276
Strand = GCCGAGTA; value = 0.224
Strand = AAGAAGGT; value = -0.0821
Strand = AGAGGTCC; value = 0.0842
Strand = ACCAGTAC; value = -0.0925
Strand = GTCTGCAA; value = -0.17
Strand = CGGAACGC; value = 0.335
Strand = CGCAACTC; value = 0.164
Strand = ACATGAGC; value = 0.0755
Strand = GGGAAGCA; value = -0.0178
Strand = CCGAGAGC; value = 0.132
Strand = ACTCTCAC; value = -0.0411
Strand = ACGAGCGG; value = 0.272
Strand = AAAAGGGA; value = -0.27
Strand = CAGCATCA; value = -0.218
Strand = CGGTCCCC; value = 0.205
Strand = GCAAAAAA; value = -0.0723
Strand = GCTAGAGC; value = 0.0512

Block 6
Target: Sal-like protein 4, full length isoform B (SALL4, Homo sapiens, UniProt Q9UJQ4-2, residues 1-616)
Technique: universal PBM
Form: double-stranded DNA, one strand shown
Sample: in vitro
Concentration: not given
Setting: 8-mer, flanks averaged, mean of replicates
Reading: higher = stronger binding
Quantity: E-score
Target sequence (chain): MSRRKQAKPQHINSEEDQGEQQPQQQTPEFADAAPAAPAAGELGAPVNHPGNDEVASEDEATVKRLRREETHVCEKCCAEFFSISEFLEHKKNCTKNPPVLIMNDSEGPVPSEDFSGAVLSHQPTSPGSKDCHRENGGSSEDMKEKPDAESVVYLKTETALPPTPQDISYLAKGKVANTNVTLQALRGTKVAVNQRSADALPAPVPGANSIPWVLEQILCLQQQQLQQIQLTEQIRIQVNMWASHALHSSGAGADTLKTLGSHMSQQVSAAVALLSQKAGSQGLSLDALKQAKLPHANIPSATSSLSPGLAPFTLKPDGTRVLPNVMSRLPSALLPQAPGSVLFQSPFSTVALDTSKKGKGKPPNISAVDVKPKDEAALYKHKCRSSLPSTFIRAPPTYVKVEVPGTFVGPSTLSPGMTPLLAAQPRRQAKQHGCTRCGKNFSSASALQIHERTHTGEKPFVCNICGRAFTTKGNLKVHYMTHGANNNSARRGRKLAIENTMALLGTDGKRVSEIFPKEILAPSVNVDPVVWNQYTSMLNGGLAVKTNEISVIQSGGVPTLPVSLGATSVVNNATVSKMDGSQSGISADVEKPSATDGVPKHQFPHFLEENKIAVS
Strand = GGCTCCGA; value = -0.307
Strand = TCTGCGCA; value = -0.205
Strand = GACTTGGC; value = -0.179
Strand = CGGGGCCC; value = -0.416
Strand = AGCAGAAG; value = -0.193
Strand = ATTAAATC; value = 0.254
Strand = ACGTATGG; value = 0.142
Strand = GGAGGGAC; value = -0.2
Strand = ATAACCTC; value = 0.226
Strand = GCGTGTCA; value = 0.0304
Strand = ACTCACCC; value = -0.102
Strand = CGCGCCAG; value = -0.277
Strand = CCGACCAC; value = -0.202
Strand = CGAGGTGA; value = -0.0653
Strand = AGACGGGG; value = -0.314
Strand = GTGTTCTA; value = 0.148
Strand = CATTCAAA; value = 0.211

Further values, each from its own experiment
Substance = SMARCA5 (Homo sapiens, UniProt O60264); partner = MED24 (Homo sapiens, UniProt O75448); technique = cross-linking MS; sample = cell fractions; with = DSSO; quantity = cross-linked residues; value = K647 to S639

Repeated from above (block 5):
Strand = ACCAGTAC; value = -0.0925
Strand = GTCTGCAA; value = -0.17
Strand = CGGAACGC; value = 0.335
Strand = CGCAACTC; value = 0.164
Strand = ACATGAGC; value = 0.0755
Strand = GGGAAGCA; value = -0.0178
Strand = CCGAGAGC; value = 0.132
Strand = ACTCTCAC; value = -0.0411
